Measurements collected from several papers.
Parts stem from different laboratories: compare values within a part only.

Block 1 — method: RNA Bind-n-Seq; molecule type: RNA; sample: in vitro; tested at: 1 µM; setting: whole 134-nt RNA, ends assumed; together with: 150 mM KCl; relative to: input library; direction: higher = stronger binding
Target: Ras GTPase-activating protein-binding protein 1, RRM domain (G3BP1, Homo sapiens, UniProt Q13283)
Sequence of UniProt Q13283 (whole entry, looked up): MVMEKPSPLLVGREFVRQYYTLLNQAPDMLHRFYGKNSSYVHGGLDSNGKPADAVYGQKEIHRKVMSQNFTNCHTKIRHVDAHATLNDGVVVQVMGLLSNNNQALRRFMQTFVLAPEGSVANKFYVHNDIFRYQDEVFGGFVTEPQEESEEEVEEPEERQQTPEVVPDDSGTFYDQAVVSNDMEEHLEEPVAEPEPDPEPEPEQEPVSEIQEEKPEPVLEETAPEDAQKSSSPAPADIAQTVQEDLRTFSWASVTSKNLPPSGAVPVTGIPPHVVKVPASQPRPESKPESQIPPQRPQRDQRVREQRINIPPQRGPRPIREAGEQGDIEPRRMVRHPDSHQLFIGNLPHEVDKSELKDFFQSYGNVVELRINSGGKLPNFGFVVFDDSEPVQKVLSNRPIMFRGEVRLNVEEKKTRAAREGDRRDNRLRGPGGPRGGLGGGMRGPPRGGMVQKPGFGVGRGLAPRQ
`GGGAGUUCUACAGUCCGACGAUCACCAUGCAGGUGGGCAUAAAUGGGAAGUGGGGCAAGGGGGGGAUAGGGAGGGGGGUAACACUUUGGGAACAGGUGGUCCCAGGUCGUUUCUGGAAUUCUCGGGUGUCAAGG` has a log2 enrichment of -0.471.
`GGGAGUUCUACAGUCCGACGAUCGUCCUGUGCUACACAUCGUAUGUACCGAAUCGGAAAAAAAGGAAAAAGGUUUUUUUGGAAAGUAUUAUGUUACGCCGUUCGGAUCUGCACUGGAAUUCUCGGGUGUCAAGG` gave a log2 enrichment of -0.0204.
`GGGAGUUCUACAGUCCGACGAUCAAGUCCUGUGCUACACAUCGUAUGUACCGAAUCGGGUUUGGGUGGGUUUUUUUGGGAAAGUAUUAUGUUACGCCGUUCGGAUCUGCACUUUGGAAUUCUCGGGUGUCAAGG` gave a log2 enrichment of 0.475.
`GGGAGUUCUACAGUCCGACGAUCGUCCUGUGCUACACAUCGUAUGUACCGAAUCGGGGUUUGGGGAAAAAAAGGGGAGGGGAAAGUAUUAUGUUACGCCGUUCGGAUCUGCACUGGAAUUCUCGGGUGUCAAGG` gave a log2 enrichment of 0.962.
With `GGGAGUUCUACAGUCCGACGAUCUGGCCCUGGUGGCGUGCGGGGAGGAAGAGGUGGCCUCAUGGAUCGUGGUGGUCCCGGUGGAAUGUUCAGAGGUGGCCGUGGUGGAGACAGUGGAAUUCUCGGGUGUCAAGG` the log2 enrichment was 0.935.
With `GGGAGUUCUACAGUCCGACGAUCCCUGUGCUACACAUCGUAUGUACCGAAUCGGGGAAAGGGGAAAAAGGGGAAAAAAAGGGGAAAGUAUUAUGUUACGCCGUUCGGAUCUGCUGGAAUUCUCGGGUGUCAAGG` the log2 enrichment was 0.422.
For `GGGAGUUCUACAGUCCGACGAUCAAGUCCUGUGCUACACAUCGUAUGUACCGAAUCGGGGUGGGGAAAGGGGUUUGGGGAAAGUAUUAUGUUACGCCGUUCGGAUCUGCACUUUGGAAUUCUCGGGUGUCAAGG`, the log2 enrichment was 1.28.
The log2 enrichment of `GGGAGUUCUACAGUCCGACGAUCCAAGUCCUGUGCUACACAUCGUAUGUACCGAAUCGGUUUUGGUUUUGGGGUUUUGGAAAGUAUUAUGUUACGCCGUUCGGAUCUGCACUUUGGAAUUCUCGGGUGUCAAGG` is reported as -0.427.
With `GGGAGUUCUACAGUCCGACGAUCAGUCCUGUGCUACACAUCGUAUGUACCGAAUCGGGGUGGGGUUUUUUUGGGGAGGGGAAAGUAUUAUGUUACGCCGUUCGGAUCUGCACUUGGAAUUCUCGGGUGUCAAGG` the log2 enrichment was 0.856.
`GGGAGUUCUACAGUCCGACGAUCACCAUGCAGGUGGGCAUCUUUGGGAAGUGGGGCAAGGGGGGGAUAGGGAGGGGGGUAACACUUUGGGAACAGGUGCUCCCAGGUCGUUUCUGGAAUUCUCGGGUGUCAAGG` has a log2 enrichment of 0.657.
For `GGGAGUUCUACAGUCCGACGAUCGCACGAAGUAAAAACAAAUGGAAAUGCUUCGGAUAGUGGCAGGGGUGGGGGUUGCUAAGGAAAGGGUGGGAUGGGAGUGGGUAAAGAGUUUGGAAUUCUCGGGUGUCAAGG`, the log2 enrichment was 1.04.
`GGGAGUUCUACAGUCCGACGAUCCAAGUCCUGUGCUACACAUCGUAUGUACCGAAUCGGGAAAGGAAAGGGAAAGGGGAAAGUAUUAUGUUACGCCGUUCGGAUCUGCACUUCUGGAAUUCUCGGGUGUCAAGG` gave a log2 enrichment of -0.0313.
`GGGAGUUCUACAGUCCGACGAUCUGGGCGGCUGCGAGAUGAGAACGGACGACCCUACUCGCCCAGUCAGUAUGCGCUCCAGUACGCCGGGGACGGCAGUGUCCUCCUCAUCCCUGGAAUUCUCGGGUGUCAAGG` has a log2 enrichment of -0.324.
`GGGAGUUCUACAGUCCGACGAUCUCCUCAAGUCCUGUGCUACACAUCGUAUGUACCGAAUCGGGAGGGAGGAGGAAAGUAUUAUGUUACGCCGUUCGGAUCUGCACUUCCAGCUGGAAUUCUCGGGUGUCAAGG` gave a log2 enrichment of -0.253.

Block 2 — method: protein binding microarray; molecule type: double-stranded DNA, one strand shown; sample: in vitro; tested at: not given; relative to: not given; direction: higher = stronger binding
Target: Histone acetyltransferase KAT6A, winged helix 2, GST fusion (KAT6A, Homo sapiens, UniProt Q92794, residues 85-181)
Setting: 8-mer, flanks averaged, mean of 2 arrays, mostly near background
Target sequence (chain): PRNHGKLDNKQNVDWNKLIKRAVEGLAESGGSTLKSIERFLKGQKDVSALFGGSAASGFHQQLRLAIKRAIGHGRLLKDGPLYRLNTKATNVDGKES
`AACAAGGC` gave an E-score of -0.15.
The E-score of `TGGGCACA` is reported as 0.0741.
The E-score of `AAGAGGAT` is reported as -0.193.
The E-score of `CCCTCCCA` is reported as 0.155.
For `AATTACCG`, the E-score was -0.0783.
For `TACGAACA`, the E-score was 0.183.
`ATTCGTCA` has an E-score of 0.00543.
With `ATTAGGTG` the E-score was -0.137.
`CAGTCGCC` has an E-score of 0.00791.
`AAGGCTTG` has an E-score of -0.16.
For `ACACCCGG`, the E-score was 0.00785.
With `CCCGGACA` the E-score was 0.0197.
`ATAATACG` gave an E-score of 0.0668.
The E-score of `ACCTTACC` is reported as -0.0357.
With `CATTAGGA` the E-score was -0.101.
The E-score of `GTTAATTA` is reported as 0.0202.
With `AGGCACGC` the E-score was 0.0935.
`CCTGTCGC` has an E-score of 0.0499.
`ACCAGAAT` gave an E-score of -0.00088.
`ATTCTCTA` has an E-score of -0.0532.
For `ATCCTGCC`, the E-score was -0.0468.
With `ACTACGAC` the E-score was -0.0343.
`CACATCCA` has an E-score of 0.0558.
With `CGTAGAAA` the E-score was -0.023.
With `ACCTTCCC` the E-score was -0.0646.

Block 3 — method: RNA Bind-n-Seq; molecule type: RNA; sample: in vitro; tested at: 365 nM; relative to: no-protein control; direction: higher = stronger binding
Target: RNA binding protein fox-1 homolog 2, RRM domain, GST-SBP tag (RBFOX2, Homo sapiens, UniProt O43251-10, residues 100-194)
Setting: natural RNA segment, single round, ends assumed
Target sequence (chain): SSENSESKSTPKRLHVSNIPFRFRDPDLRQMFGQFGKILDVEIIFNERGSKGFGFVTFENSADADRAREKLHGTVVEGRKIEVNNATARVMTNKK
`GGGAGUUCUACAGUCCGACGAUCUCAUUCCUAAGUUCCUUUUUCGUUAAUGUAGCUUUCAUUUCUGUUAUUGCUGUUUGAAUAAUAUGAUUAAAUAGAAGGUUUGUGCCAGUAGACAUUAUGUUACUAAAUCAUGGAAUUCUCGGGUGCCAA` — result for “RBNS enrichment (R)”: 1.11.
`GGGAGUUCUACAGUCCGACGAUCCAGUGGAGUGGUGACACGUGCCAGCGGUCACUCUGCCACAUCACUUCCUUCUUGAAAGCCUAAGAGUGCGUAUGCGUGUGUGUGUGUGUGUGUGUGUGUACGUGAGGCAGUGGAAUUCUCGGGUGCCAA` — result for “RBNS enrichment (R)”: 1.03.
Under “RBNS enrichment (R)”, `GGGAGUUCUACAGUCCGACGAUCGCCCUCAAAUUGUAGUCUCUGUCGGCUUCUGCAGAAUUCUGGAAAAUGCCAGUUUUCCUCCCCCGCCCUUGUUUUCCAUAAAACAUAUUUAUAUAUUGUGAUGAGGAGUAUGGAAUUCUCGGGUGCCAA` is recorded as 0.553.
`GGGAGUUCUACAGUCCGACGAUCCAGGCUGGAUCCGAGUGUCCCCUCUGCAGCAGACGGGGACGCCAGGAUGCGGCUUGGGACUCAGACCUCAUCAUAUUGAUGAGUAGAAAGAACGUUCCCCCGCCCUCCUCUGGAAUUCUCGGGUGCCAA` — result for “RBNS enrichment (R)”: 0.219.
For `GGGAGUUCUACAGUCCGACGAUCAAGGGGGGCAGUCAGAACAGCUGUUCCCCACUCCGUGGUUCUCAAAAUCAUAAACCAUGGCUACUCUUGGGAACCACCCGGCCAUGUGGUCGCCAAGUAGAGCAAGCCCCUGGAAUUCUCGGGUGCCAA`, “RBNS enrichment (R)” read 0.263.
For `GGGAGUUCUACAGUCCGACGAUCAGGGAGCUUUGGGGAUGCGGGCCUUCCCUGGGGCUUGGACCUUUGCAGGGAGGCCAUGCCCGCCACCCCUCUUGUUCUGGAUCCCUGCUCCCCUCUGGGUGUGUGGGUGUUGGAAUUCUCGGGUGCCAA`, “RBNS enrichment (R)” read 0.3.
`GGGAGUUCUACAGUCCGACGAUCAGUAUAUACUAACAUCAUUCUGCCAAGGUAGGAAGCCCCUGACCCCCAAGCAGUGGUGCCACUCUUCCAAGCCUCUUGGUGCACAGUAAACCUAUUGCUUGAAGCUUUGAUGGAAUUCUCGGGUGCCAA`: “RBNS enrichment (R)” 0.427.
`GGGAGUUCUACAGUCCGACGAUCAGCUUAGUUUGUUACUAUGUGUGAUUUAGCAUCUGUCGCACUUGUGUAAAUAUGGAGUAAGUAUUGUAAACUAUUUAAUUGCUGCGAUUGUUGGGUUAUACAUACAUUUAUGGAAUUCUCGGGUGCCAA`: “RBNS enrichment (R)” 13.3.
`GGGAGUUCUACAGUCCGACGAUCGUCGGGCUUAUAAAAAUCUGUGCCAUCAUGGUGAUUUUAUCCAAGACUGCUCCACUUACCCCAGUGCUGGGGACAAGUUUCUGUUGAAACUUUAGAUAGCAGAAUUAUUUUGGAAUUCUCGGGUGCCAA`: “RBNS enrichment (R)” 0.338.
`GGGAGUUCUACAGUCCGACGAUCGAUAAUUUUUAGCCUUUCCAAAAUGCAAAUAACUUGGAUAUAUUUCCAUUUUCCAGCUAUAGAGAGAAACAAUCCAGCUGCCUGGAAACUGUUAUUAGUAUAGAAGUGGCUGGAAUUCUCGGGUGCCAA`: “RBNS enrichment (R)” 0.541.
`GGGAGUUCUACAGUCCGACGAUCUUAAGUUUUAUGUGUAUUAUCUUCCCACUACCAAGAAUGGUUAUGUUUCACAGAAUACCAGUUCAGUUUGAUUUGGAAAAAGAUGCCAAACCAAAUUUAUAUGUAGUCUAUGGAAUUCUCGGGUGCCAA`: “RBNS enrichment (R)” 1.2.
For `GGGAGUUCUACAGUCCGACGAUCUCCUAAGUUUUGGGGUUACCCUAUCUGCUUUGAGAGACAAAUACAAAAGCUAAAUGGAAGAGAUUCUUCUAACCUGUCCUUAUGGUAACUAAAUGCCGUCUUACAUUGAGUGGAAUUCUCGGGUGCCAA`, “RBNS enrichment (R)” read 0.251.

Block 4 — method: aptamer microarray, sandwich; molecule type: DNA with 2'F-ANA; sample: in vitro; tested at: 200 nM; together with: Cy3 exosite-II aptamer, 400 nM; direction: higher = stronger binding; sequence: GGTTGGTGTGGTTGG
Target: Prothrombin, mature alpha-thrombin (F2, Homo sapiens, UniProt P00734)
Setting: whole 15-mer aptamer, many near background
`2'F-ANA at 1 2 5 7 8 9 11 12 13 14 15`: “mean fluorescence intensity” 88.5 a.u.
`2'F-ANA at 1 5 6 11 15` — result for “mean fluorescence intensity”: 53.8 a.u.
For `2'F-ANA at 1 5 10 11 12 14 15`, “mean fluorescence intensity” read 47.3 a.u.
`2'F-ANA at 1 2 6 7 9 13 14 15` — result for “mean fluorescence intensity”: 49.9 a.u.
`2'F-ANA at 2 3 4 5 6 9 10 11` — result for “mean fluorescence intensity”: 78.9 a.u.
`2'F-ANA at 2 3 4 6 8 11 12 13 15` — result for “mean fluorescence intensity”: 569 a.u.
`2'F-ANA at 1 7 9 11 12 13`: “mean fluorescence intensity” 250 a.u.
For `2'F-ANA at 5 6 7 9 15`, “mean fluorescence intensity” read 94 a.u.
For `2'F-ANA at 2 5 7 9 10 14`, “mean fluorescence intensity” read 43.1 a.u.
Under “mean fluorescence intensity”, `2'F-ANA at 7 8 10 11 12 14 15` is recorded as 121 a.u.
Under “mean fluorescence intensity”, `2'F-ANA at 2 3 6 7 8 9 11 12` is recorded as 934 a.u.
For `2'F-ANA at 1 2 4 8 9 11 13 14`, “mean fluorescence intensity” read 49.9 a.u.
`2'F-ANA at 1 5 7 8 15` — result for “mean fluorescence intensity”: 65.3 a.u.
`2'F-ANA at 1 5 7 8 9 10 12 14 15`: “mean fluorescence intensity” 48.6 a.u.
For `2'F-ANA at 1 2 4 5 13 14 15`, “mean fluorescence intensity” read 45.2 a.u.
For `2'F-ANA at 1 3 4 5 9 11 15`, “mean fluorescence intensity” read 53.7 a.u.
`2'F-ANA at 2 4 6 7 11 12 13 14`: “mean fluorescence intensity” 93.8 a.u.
`2'F-ANA at 4 5 6 7 9 10 11 12 15` — result for “mean fluorescence intensity”: 48.1 a.u.
Under “mean fluorescence intensity”, `2'F-ANA at 2 5 7 11 13 14` is recorded as 106 a.u.
For `2'F-ANA at 4 8 9 10 11 12 15`, “mean fluorescence intensity” read 101 a.u.

Some of these lines once more (block 2):
`ATTCGTCA` has an E-score of 0.00543.
With `ATTAGGTG` the E-score was -0.137.
`CAGTCGCC` has an E-score of 0.00791.
`AAGGCTTG` has an E-score of -0.16.
For `ACACCCGG`, the E-score was 0.00785.
With `CCCGGACA` the E-score was 0.0197.
